Measured values collected from several papers.
Each numbered part is a random draw from the data of one study; scales do not carry over between parts. Changes are numbered by the printed parent chain.
Chain of UniProt O00506 (whole entry, looked up): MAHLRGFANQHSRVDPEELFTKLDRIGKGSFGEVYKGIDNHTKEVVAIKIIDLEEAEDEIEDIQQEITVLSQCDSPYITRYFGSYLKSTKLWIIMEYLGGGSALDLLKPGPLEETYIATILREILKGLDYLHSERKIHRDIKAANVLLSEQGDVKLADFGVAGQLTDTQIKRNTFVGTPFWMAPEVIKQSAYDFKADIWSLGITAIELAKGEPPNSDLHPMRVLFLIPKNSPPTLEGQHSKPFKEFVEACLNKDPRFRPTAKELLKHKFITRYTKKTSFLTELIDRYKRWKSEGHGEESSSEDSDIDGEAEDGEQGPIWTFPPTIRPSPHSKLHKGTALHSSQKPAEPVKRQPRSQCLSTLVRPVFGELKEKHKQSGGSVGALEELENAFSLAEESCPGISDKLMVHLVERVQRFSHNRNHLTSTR

Block 1 — target: BATF2, bZIP domain (human); method: DHFR protein complementation; medium: yeast; baseline: wild-type JUN-FOS pair; reading: higher = stronger binding; measurement: binding fitness
Notes: single substitutions, most at no-binding floor
Parent: JUN, bZIP domain (human); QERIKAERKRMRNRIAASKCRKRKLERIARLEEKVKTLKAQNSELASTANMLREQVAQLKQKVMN; partner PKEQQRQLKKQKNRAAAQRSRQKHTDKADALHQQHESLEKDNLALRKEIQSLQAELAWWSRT
V35M: -0.888 natural log
V56N: -1.22 natural log
S47F: -0.311 natural log
L52V: -1.22 natural log
L45P: -1.31 natural log
A57P: -1.5 natural log
T48M: -0.195 natural log
V35I: -0.127 natural log

Block 2 — Substitution: K54G; method: DHFR PCA, deep sequencing; medium: yeast; baseline: wild-type fitted maximum; reading: higher = stronger binding; measurement: relative binding score
Target: ABI1, truncated, D143A, DHFR fusion (Arabidopsis thaliana)
Notes: methotrexate growth selection, single substitutions
Parent: PYL1, truncated, DHFR fusion (Arabidopsis thaliana); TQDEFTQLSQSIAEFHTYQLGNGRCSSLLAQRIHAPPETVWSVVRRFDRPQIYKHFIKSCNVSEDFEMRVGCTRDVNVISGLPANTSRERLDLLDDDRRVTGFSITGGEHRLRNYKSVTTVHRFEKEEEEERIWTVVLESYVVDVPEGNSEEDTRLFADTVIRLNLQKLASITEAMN; partner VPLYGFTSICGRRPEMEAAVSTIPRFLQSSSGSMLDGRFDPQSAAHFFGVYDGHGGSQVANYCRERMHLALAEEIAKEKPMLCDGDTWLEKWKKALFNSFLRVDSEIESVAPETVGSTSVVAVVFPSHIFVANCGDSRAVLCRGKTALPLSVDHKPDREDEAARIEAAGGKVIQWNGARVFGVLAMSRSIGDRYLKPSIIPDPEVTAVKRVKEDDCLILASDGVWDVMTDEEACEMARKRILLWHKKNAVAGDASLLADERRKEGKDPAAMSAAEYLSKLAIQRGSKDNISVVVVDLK
added: (+)-ABA 710 µM: -6.19%
added: (+)-ABA 58 µM: -5.61%
added: (+)-ABA 1.4 µM: -3.58%
added: (+)-ABA 17 µM: -3.22%
added: (+)-ABA 2500 µM: 8.72%
added: (+)-ABA 4.8 µM: -4.79%

Block 3 — method: universal PBM; form: double-stranded DNA, one strand shown; medium: in vitro; tested at: 600 nM; reading: higher = stronger binding; measurement: E-score
Target: Sal-like protein 4, full length isoform A (SALL4, Homo sapiens, UniProt Q9UJQ4, residues 1-1053)
Chain of UniProt Q9UJQ4 (whole entry, looked up): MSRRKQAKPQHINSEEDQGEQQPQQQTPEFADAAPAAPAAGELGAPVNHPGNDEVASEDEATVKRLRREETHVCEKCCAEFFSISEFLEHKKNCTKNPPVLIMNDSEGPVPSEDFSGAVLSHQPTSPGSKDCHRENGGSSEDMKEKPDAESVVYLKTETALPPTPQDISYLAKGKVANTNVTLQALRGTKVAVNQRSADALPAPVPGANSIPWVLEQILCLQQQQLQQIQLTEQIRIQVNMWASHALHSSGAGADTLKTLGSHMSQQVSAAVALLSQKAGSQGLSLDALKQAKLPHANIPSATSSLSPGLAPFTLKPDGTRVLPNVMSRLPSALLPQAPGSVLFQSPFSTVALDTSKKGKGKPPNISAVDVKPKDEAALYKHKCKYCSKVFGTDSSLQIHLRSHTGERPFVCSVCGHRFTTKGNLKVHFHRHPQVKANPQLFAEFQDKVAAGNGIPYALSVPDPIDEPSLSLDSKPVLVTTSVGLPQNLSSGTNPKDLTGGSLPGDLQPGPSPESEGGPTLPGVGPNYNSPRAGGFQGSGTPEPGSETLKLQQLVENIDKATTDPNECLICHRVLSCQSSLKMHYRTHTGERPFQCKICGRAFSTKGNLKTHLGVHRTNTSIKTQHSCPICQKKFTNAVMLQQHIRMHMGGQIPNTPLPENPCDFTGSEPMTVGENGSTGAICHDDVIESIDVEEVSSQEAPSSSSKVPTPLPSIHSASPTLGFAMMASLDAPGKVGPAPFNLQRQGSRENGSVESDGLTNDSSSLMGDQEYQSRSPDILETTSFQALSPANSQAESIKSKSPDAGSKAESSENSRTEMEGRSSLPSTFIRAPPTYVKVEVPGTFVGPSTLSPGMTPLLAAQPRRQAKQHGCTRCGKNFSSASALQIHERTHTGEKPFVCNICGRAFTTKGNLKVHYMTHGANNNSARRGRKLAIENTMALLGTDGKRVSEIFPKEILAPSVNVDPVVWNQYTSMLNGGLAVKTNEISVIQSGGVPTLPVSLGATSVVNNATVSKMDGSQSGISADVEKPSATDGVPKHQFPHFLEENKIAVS
Notes: 8-mer, flanks averaged, mean of replicates
CTCAGAAA: 0.0774
ACCGTGCA: -0.186
GGTCGAGA: -0.19
AGAATAAA: 0.357
AAAAAAGT: 0.236
TCCCGCGA: -0.183
CTACCTAA: 0.0777
AGATAGTC: 0.00354

Other studies, line by line
O=C1NC(=O)C(c2cn(CCCn3ccnc3)c3ccccc23)=C1Nc1ccccc1  remaining activity (Serine/threonine-protein kinase 25 (STK25, Homo sapiens, UniProt O00506); enzyme activity, inhibitor; 0.5 µM; baseline: control): 63.1%
